Values quoted from earlier work, collected from citations in different studies.
Each line is one published result; not all experiments were run side by side. ± gives the spread as reported.
Chain of UniProt Q9UL54 (whole entry, looked up): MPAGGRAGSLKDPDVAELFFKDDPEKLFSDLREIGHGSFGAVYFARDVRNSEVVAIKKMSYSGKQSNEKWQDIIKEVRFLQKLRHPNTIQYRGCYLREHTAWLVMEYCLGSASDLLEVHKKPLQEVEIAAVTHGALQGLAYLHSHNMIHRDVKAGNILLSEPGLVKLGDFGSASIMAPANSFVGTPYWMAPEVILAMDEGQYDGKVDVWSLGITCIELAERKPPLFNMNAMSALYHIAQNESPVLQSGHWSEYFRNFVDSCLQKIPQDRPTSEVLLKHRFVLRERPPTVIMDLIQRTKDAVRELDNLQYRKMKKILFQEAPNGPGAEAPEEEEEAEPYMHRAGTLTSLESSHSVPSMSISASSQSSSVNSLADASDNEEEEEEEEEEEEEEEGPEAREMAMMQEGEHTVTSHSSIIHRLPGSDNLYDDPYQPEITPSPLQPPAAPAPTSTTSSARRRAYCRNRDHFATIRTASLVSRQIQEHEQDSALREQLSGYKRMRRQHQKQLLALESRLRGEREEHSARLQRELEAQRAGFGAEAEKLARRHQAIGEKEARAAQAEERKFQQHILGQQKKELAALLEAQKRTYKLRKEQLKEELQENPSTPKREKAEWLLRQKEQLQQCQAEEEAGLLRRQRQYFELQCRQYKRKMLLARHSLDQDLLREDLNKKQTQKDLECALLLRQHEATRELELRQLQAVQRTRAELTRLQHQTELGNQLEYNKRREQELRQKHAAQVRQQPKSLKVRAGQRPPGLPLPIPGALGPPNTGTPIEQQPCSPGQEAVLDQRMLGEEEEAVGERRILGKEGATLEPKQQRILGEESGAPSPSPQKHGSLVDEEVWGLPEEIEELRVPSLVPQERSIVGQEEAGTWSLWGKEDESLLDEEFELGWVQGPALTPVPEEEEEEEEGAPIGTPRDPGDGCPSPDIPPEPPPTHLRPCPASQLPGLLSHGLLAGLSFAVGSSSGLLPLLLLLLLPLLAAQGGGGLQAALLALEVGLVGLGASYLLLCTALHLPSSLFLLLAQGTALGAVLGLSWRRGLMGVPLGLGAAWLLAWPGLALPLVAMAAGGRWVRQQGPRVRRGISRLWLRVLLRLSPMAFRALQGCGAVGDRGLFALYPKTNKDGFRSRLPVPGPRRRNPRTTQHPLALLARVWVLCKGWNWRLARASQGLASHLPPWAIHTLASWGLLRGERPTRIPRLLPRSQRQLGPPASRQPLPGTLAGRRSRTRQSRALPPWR

Structure (SMILES) | target or system | test | system | conditions | scale | quantity | result
CC(F)(F)c1cc(F)ccc1-c1sc2cc(O)ccc2c1Oc1ccc(/C=C/C(=O)O)cc1 | MCF7 | ER-mediated transcription, inhibitor |  |  |  | IC50 | 6 nM
O=C(O)Cc1ccccc1Nc1c(Cl)cccc1Cl | primary human hepatocyte spheroids | cell viability |  | 3 days |  | IC50 | 191000 nM
CNC(C)C1CCC(N)C(OC2C(N)CC(N)C(OC3OCC(C)(O)C(NC)C3O)C2O)O1 (stereo not shown) | Pseudomonas aeruginosa |  | clinical isolate RKI-No_93/12 |  |  | MIC | > 8 mg/L
C/C=C1\NC(=O)[C@H]2CSSCC/C=C/[C@H](CC(=O)N[C@H](C(C)C)C(=O)N2)OC(=O)[C@H](C(C)C)NC1=O | neonatal foreskin fibroblasts | cell growth |  |  |  | IC50 | 1 ± 1 nM
CNC(=O)c1cc(Oc2ccc(NC(=O)Nc3ccc(Cl)c(C(F)(F)F)c3)cc2)ccn1 | T98G |  |  |  |  | IC50 | 16300 nM
COc1cccc2c1C(=O)c1c(O)c3c(c(O)c1C2=O)C[C@@](O)(C(=O)CO)C[C@@H]3O[C@H]1C[C@H](N)[C@H](O)[C@H](C)O1 | HeLa |  |  |  |  | IC50 | 16700 nM
O=C(CCSSc1ccccc1/C=N/NC(=O)c1ccccc1)OC[C@H]1OC(O)[C@H](O)[C@@H](O)[C@@H]1O (stereo partly shown) | A2780 ovarian carcinoma | MTT |  | 72 h |  | IC50 | 5200 ± 800 nM
CC1(C)S[C@@H]2[C@H](NC(=O)[C@H](N)c3ccccc3)C(=O)N2[C@H]1C(=O)O | Pseudomonas aeruginosa |  | clinical isolate RKI-No_393/11 |  |  | MIC | > 16 mg/L
C=CC(=O)Nc1cc(Nc2nccc(-c3cn(C)c4ccccc34)n2)c(OC)cc1N(C)CCN(C)C | A 172 |  |  |  |  | IC50 | 4140 nM
C[C@@H](O)C(=O)CCCCC[C@@H]1NC(=O)[C@H]2CCCN2C(=O)[C@H](Cc2ccccc2)NC(=O)C(C)(C)NC1=O | Jurkat |  |  |  |  | IC50 | 48 nM
Nc1cc(C(F)(F)F)c(-c2nc(N3CCOCC3)nc(N3CCOCC3)n2)cn1 | TAOK2 (Homo sapiens, UniProt Q9UL54) | enzyme activity |  | 10 µM | reference: untreated | remaining activity | 100%
COc1cc2c(Oc3ccc4[nH]c(C)cc4c3F)ncnc2cc1OCCCN1CCCC1 | T98G |  |  |  |  | IC50 | 14200 nM
Clc1cccc(Nc2ccc3c(N4CCCCC4)ncnc3n2)c1 | Plasmodium falciparum | whole cell extended time | 3D7 | 72 h |  | IC50 | 580 nM
O=c1c(-c2ccc(O)cc2)coc2cc(O)cc(O)c12 | NIH3T3 | mitogenic effect |  | with: EGF |  | IC50 | 12000 nM
CO[C@H]1C[C@@H]2CC[C@@H](C)[C@@](O)(O2)C(=O)C(=O)N2CCCC[C@H]2C(=O)O[C@H]([C@H](C)C[C@@H]2CC[C@@H](O)[C@H](OC)C2)CC(=O)[C@H](C)/C=C(\C)[C@@H](O)[C@@H](OC)C(=O)[C@H](C)C[C@H](C)/C=C/C=C/C=C/1C | T98G |  |  |  |  | IC50 | 50 nM
CCc1c2c(nc3ccc(OC(=O)N4CCC(N5CCCCC5)CC4)cc13)-c1cc3c(c(=O)n1C2)COC(=O)[C@]3(O)CC | HT-29 |  |  |  |  | IC50 | 5170 nM

Structure (SMILES) | target or system | test | system | conditions | scale | quantity | result
Nc1cccc2c1C(=O)N(C1CCC(=O)NC1=O)C2=O (stereo not shown) | human whole blood |  |  | with: LPS stimulation |  | IC50 | 25 nM
O=c1ncccn1[C@@H]1O[C@H](CO)[C@@H](O)[C@H]1O | A2780 |  |  |  |  | IC50 | 92000 nM
COc1cc2c3c(n(CCCN4CCOCC4)c(=O)c2cc1OC)-c1cc2c(cc1C3=O)OCO2 | P388 |  |  | 72 h |  | IC50 | 300 nM
CC(=O)Nc1cccc(-n2c(=O)n(C3CC3)c(=O)c3c(Nc4ccc(I)cc4F)n(C)c(=O)c(C)c32)c1 | A 172 |  |  |  |  | IC50 | 1500 nM
O=C(/C=C/c1cccc(S(=O)(=O)Nc2ccccc2)c1)NO | HEK293 | cell growth |  |  |  | IC50 | 1420 ± 50 nM
Nc1cc(C(F)(F)F)c(-c2cc(N3CCOCC3)nc(N3CCOCC3)n2)cn1 | A 172 |  |  |  |  | IC50 | 1230 nM
COc1ccc(Oc2ccc(-c3c(C)[nH]c(C)c(Cl)c3=O)cc2)cc1 | Plasmodium falciparum | whole cell extended time | 3D7 | 72 h |  | IC50 | 140 nM
Cc1c(C#N)cccc1[C@@H](C)Nc1nnc(C)c2cnc(N3CCOCC3)cc12 | LN-229 | ERK phosphorylation, In-Cell Western, measured: phospho-ERK |  |  |  | IC50 | 38.9 ± 19.3 nM
C[C@@H](c1ccc2nccn2c1)n1nnc2ncc(-c3cnn(C)c3)nc21 | A 172 |  |  |  |  | IC50 | 6840 nM
C[C@H]1COCCN1c1nc(-c2cnc(N)cc2C(F)F)nc(N2CCOCC2)n1 | MG-63 |  |  |  |  | GI50 | 241 nM
Nc1nc(Cl)nc2c1ncn2[C@H]1C[C@H](O)[C@@H](CO)O1 | MM1.S |  |  |  |  | IC50 | ~180 nM
Cn1ncc(Cl)c1-c1cc(C(=O)N[C@H](CN)Cc2ccc(F)c(F)c2)oc1Cl | A 172 |  |  |  |  | IC50 | 15700 nM
N=C(N)c1ccc(Nc2ccc(-c3cc4ccc(C(=N)N)cc4[nH]3)cc2)cc1 | MEG-01 | cell proliferation |  |  |  | IC50 | 1030 nM
CCN1[C@@H](C(=O)NC23CCC(C(=O)O)(CC2)CC3)[C@H](c2cccc(Cl)c2F)[C@]2(C(=O)Nc3cc(Cl)ccc32)C12CCCCC2 | SJSA-1 | cell growth |  |  |  | IC50 | 2700 nM
CN(CCOc1ccc(CC2SC(=O)NC2=O)cc1)c1ccccn1 (stereo not shown) | 3T3-L1 adipocytes |  |  |  |  | IC50 | 4 nM

A few entries again:
Structure (SMILES) | target or system | test | system | conditions | scale | quantity | result
COc1cc2c(Oc3ccc4[nH]c(C)cc4c3F)ncnc2cc1OCCCN1CCCC1 | T98G |  |  |  |  | IC50 | 14200 nM
Clc1cccc(Nc2ccc3c(N4CCCCC4)ncnc3n2)c1 | Plasmodium falciparum | whole cell extended time | 3D7 | 72 h |  | IC50 | 580 nM
